# Measurements gathered from unrelated publications.
# Parts stem from different laboratories: compare values within a part only. Positions count from the first letter of the parent shown.

# Set 1 — method: DHFR PCA, deep sequencing; matrix: yeast; added: (+)-ABA 17 µM; relative to: wild-type fitted maximum; reading: higher = stronger binding
# Target: ABI1, truncated, D143A, DHFR fusion (Arabidopsis thaliana)
# Setting: methotrexate growth selection, single substitutions
# Starting sequence: PYL1, truncated, DHFR fusion (Arabidopsis thaliana); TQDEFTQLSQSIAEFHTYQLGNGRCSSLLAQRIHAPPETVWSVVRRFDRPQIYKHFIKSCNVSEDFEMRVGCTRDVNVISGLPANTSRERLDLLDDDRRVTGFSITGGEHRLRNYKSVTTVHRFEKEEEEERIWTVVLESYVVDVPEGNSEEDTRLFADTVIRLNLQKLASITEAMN; partner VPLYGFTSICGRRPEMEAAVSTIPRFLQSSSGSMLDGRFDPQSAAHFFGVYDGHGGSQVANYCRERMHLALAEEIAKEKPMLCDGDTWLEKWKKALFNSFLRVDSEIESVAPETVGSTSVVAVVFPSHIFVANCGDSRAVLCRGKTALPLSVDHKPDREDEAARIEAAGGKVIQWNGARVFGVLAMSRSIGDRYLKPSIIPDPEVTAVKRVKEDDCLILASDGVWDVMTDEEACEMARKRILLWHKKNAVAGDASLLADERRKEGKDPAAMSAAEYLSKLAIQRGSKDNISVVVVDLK
Variant,relative binding score [%]
A13D,80.9
E139D,0.803
R113Y,59.2
L82G,21.5
T154R,3.3
P50T,-4.27
G81T,16.4

# Set 2 — target: CCND2, cyclin fold, Cln2 fusion (human); method: yeast growth competition, sequencing; matrix: yeast; setting: strong parent motif; relative to: not given; reading: higher = stronger binding
# Starting sequence: INSM1 docking peptide (human); PKAIRKLHFEDEV
Variant,normalised enrichment score
E12M,2.19
D11Y,1.09
E10K,0.671
D11K,1.32
K2V,1.19

# Set 3 — method: protein-binding microarray; form: double-stranded DNA, one strand shown; matrix: in vitro; tested at: 940 nM top; setting: 60-bp whole probe; added: salmon DNA 0.4 mg/ml; relative to: random background probes; reading: higher = stronger binding; all sequences stand within: GCCTAGCAC … GTCTTGATTCGCTTGACGCTGCTG
# Target: Interferon regulatory factor 5, full length, phosphomimetic (IRF5, Homo sapiens, UniProt Q13568-2, residues 1-514, S451D/S453D/S456D/S462D)
Strand,fitted relative affinity [z-score]
GACGGACTGGGACGGGGGACGTGCTAG,0.631
TTAGGTTTCCGTTCCGGTTAGTGCTAG,2.96
TTAGGTATCGGGTTTCGGATAGTGCTA,6.71
TTTATTTTTTTTATTTATAAGTGCTAG,1.56
GACGGTAACGACTTTCGGGACGTGCTA,0.55
TTCGGTATCCTTTTCCTTTAGTGCTAG,1.16
TTAGGTTTCCTACTGCTTTAGTGCTAG,0.769

# Single results of other studies
Substance,target,assay,test system,setting,scale,measurement,value
"PhoQ, residues 284 288 289 292 302 303 SSTMSV","PhoP, residues 12 14 15 18 19 NIMAP (Escherichia coli, UniProt P23836)","Sort-seq, item: YFP reporter",E. coli,"PhoQ-PhoP variant library, added: 10 µM Mg2+","relative to: high Mg2+ state, higher = stronger signaling",fold induction,0.714

# Excerpt of the above (set 3):
Strand,fitted relative affinity [z-score]
TTAGGTTTCCTACTGCTTTAGTGCTAG,0.769
TTCGGTATCCTTTTCCTTTAGTGCTAG,1.16
